Assay results from different studies.
“And” joins repeats or separate records; there may be more than shown. Numbers after ± are the reported error.
E3 ubiquitin-protein ligase NEDD4: E3 ubiquitin-protein ligase NEDD4 (Homo sapiens, UniProt P46934)
RPA1 N-terminal domain: Replication protein A 70 kDa DNA-binding subunit, N-terminal domain (RPA1, Homo sapiens, UniProt P27694)
Lysophospholipase-like protein 1: Lysophospholipase-like protein 1 (Mus musculus, UniProt Q3UFF7)

Sequences of proteins named here, by UniProt entry; tags and fusion partners are left off. Residues count along the entry.
UniProt P46934, whole entry, looked up: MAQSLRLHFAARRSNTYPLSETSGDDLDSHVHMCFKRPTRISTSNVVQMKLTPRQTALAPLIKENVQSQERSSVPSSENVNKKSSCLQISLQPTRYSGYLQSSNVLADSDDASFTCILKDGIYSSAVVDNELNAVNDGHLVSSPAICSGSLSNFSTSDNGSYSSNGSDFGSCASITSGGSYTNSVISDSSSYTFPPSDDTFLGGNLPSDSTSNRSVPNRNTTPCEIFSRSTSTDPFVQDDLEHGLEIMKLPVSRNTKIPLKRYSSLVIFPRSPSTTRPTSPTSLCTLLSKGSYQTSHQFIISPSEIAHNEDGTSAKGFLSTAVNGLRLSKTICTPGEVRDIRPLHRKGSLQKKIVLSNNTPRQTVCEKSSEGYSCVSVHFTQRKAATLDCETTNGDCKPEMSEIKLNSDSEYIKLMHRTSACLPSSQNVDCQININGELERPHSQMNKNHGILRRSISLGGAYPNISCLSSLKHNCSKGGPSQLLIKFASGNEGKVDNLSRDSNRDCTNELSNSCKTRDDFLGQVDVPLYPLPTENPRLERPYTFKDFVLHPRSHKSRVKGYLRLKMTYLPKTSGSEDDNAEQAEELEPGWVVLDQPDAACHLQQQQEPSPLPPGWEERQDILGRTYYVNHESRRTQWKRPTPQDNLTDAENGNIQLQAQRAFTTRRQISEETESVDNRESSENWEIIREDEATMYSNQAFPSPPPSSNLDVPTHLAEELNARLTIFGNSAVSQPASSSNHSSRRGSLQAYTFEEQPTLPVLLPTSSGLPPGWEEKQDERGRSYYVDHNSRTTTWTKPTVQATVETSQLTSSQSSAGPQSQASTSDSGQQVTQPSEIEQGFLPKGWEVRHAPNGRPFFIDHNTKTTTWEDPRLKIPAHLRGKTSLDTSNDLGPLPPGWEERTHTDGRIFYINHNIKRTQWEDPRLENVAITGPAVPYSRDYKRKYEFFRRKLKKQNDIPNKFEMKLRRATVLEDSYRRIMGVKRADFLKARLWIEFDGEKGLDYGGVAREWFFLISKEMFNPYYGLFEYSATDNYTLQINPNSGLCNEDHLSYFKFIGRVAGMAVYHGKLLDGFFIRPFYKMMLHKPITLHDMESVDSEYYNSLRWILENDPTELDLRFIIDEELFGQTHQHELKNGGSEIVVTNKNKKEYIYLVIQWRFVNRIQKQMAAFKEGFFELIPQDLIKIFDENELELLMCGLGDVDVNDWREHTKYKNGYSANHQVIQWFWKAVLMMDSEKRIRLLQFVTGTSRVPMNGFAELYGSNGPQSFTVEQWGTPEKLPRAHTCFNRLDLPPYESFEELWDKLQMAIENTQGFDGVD
UniProt P31421, 19-872 limits assumed: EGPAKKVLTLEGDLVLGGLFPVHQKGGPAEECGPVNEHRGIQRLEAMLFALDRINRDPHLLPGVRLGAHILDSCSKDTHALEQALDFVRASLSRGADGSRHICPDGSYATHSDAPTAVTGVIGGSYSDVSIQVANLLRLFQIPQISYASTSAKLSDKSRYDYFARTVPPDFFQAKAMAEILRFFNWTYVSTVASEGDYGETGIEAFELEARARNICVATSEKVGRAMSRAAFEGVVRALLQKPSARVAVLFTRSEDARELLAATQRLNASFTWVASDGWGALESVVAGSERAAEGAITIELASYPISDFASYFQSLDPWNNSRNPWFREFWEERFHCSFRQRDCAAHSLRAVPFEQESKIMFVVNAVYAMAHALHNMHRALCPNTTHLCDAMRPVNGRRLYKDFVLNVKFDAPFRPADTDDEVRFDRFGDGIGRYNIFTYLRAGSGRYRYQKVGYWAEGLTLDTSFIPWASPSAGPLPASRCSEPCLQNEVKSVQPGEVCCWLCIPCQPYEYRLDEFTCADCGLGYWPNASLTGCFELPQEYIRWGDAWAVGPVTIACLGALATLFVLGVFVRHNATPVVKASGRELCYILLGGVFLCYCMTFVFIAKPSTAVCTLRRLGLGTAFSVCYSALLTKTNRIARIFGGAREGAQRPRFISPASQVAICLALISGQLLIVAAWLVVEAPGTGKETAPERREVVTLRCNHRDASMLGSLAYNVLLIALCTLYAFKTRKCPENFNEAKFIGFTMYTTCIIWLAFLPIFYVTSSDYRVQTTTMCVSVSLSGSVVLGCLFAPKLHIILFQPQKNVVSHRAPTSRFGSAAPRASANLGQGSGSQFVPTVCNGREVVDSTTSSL
UniProt Q8VIJ5, whole entry: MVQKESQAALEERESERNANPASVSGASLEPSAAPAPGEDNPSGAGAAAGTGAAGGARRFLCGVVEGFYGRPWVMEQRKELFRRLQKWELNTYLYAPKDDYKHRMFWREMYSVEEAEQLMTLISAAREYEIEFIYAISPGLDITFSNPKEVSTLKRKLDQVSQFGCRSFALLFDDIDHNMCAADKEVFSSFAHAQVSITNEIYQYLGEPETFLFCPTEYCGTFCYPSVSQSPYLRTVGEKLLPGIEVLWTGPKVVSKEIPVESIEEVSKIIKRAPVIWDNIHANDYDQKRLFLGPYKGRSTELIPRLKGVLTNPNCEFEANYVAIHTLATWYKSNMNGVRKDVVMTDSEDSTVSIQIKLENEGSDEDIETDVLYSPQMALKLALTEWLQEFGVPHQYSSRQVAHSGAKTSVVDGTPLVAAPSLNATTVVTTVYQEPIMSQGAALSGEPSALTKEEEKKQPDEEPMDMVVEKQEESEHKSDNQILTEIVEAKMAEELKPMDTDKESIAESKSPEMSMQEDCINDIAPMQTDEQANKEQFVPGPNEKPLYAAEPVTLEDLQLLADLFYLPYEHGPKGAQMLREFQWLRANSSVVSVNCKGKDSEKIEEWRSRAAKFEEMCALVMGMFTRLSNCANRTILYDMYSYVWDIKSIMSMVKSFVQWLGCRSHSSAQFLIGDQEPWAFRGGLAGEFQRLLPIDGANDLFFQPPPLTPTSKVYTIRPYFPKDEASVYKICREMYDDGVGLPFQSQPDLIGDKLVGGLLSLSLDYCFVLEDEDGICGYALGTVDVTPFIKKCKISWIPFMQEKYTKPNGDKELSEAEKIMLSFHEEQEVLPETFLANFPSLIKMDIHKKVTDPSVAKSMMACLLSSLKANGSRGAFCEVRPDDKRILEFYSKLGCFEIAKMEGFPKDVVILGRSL
UniProt Q00534, whole entry: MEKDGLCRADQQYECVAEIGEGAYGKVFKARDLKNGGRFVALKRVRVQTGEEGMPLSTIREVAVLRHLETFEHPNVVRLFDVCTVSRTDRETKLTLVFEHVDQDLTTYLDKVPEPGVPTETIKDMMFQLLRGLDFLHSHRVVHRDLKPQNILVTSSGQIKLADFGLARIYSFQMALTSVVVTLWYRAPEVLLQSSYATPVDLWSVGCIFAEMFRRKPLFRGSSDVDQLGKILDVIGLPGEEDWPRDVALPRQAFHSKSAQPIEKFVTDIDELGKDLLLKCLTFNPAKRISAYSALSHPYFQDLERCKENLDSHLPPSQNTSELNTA
UniProt P53779, 1-422 isoform 2: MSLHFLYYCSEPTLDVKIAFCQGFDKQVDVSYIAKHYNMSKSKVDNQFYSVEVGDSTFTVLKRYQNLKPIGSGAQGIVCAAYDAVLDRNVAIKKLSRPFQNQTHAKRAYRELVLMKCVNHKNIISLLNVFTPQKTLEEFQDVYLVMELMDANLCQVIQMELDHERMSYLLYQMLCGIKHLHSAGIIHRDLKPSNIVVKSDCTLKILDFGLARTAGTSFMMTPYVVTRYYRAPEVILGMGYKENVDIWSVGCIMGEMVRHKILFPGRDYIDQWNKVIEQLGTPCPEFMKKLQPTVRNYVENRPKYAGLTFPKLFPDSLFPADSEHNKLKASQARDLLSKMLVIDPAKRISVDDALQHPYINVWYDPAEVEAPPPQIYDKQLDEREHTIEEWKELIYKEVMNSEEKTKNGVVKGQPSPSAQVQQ
UniProt Q00960, 27-1482 limits assumed: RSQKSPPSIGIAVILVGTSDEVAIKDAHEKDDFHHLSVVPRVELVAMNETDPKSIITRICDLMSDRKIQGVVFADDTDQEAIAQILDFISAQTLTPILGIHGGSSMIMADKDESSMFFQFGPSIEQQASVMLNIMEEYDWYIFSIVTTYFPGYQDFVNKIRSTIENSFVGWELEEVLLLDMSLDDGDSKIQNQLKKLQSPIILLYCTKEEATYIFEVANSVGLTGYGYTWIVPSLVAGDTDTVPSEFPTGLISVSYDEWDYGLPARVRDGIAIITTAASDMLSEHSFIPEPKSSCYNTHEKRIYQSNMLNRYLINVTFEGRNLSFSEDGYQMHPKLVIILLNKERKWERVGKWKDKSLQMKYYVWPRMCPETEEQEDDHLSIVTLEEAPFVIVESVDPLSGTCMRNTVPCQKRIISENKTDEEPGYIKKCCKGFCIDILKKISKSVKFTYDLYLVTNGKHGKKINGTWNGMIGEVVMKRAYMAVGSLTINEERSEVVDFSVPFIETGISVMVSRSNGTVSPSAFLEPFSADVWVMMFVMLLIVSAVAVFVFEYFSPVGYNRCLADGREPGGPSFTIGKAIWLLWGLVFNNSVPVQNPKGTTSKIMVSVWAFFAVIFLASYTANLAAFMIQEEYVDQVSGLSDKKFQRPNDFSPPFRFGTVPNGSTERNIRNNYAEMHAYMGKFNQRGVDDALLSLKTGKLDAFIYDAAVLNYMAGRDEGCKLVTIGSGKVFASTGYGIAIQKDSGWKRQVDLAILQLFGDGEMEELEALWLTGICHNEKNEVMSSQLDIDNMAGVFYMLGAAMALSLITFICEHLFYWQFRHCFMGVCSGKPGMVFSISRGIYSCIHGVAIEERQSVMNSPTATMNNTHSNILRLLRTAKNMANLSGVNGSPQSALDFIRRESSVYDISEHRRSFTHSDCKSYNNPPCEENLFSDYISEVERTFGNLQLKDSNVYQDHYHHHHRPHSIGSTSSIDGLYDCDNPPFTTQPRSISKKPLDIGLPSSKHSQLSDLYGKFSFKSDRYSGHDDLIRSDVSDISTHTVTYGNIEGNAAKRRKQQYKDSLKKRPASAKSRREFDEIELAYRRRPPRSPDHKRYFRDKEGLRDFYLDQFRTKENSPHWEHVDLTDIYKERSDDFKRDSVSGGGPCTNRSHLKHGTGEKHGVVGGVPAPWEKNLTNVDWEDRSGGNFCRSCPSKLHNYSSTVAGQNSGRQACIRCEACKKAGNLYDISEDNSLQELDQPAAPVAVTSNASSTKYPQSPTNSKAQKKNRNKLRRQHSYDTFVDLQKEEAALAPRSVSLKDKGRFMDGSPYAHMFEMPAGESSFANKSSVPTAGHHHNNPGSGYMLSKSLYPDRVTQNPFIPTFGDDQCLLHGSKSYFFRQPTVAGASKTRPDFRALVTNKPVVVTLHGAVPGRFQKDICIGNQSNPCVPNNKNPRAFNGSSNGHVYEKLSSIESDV
UniProt Q99797, 36-713 limits assumed: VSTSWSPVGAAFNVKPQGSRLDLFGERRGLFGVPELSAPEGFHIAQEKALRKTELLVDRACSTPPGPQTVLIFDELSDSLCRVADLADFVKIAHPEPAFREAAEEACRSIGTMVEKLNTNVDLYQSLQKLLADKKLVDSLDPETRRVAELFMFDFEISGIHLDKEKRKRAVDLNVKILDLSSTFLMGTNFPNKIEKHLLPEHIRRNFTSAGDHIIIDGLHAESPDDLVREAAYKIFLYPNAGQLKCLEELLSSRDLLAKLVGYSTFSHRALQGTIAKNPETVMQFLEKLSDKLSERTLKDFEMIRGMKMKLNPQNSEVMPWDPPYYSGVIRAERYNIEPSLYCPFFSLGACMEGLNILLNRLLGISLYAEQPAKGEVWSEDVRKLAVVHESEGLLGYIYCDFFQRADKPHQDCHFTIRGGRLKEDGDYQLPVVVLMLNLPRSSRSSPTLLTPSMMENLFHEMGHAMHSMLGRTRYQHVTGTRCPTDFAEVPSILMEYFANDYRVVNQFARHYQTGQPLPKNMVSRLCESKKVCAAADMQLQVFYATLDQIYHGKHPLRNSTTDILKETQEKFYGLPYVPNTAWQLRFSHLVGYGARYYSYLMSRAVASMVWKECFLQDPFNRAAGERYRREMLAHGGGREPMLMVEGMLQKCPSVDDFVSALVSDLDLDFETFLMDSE
UniProt P16671, whole entry: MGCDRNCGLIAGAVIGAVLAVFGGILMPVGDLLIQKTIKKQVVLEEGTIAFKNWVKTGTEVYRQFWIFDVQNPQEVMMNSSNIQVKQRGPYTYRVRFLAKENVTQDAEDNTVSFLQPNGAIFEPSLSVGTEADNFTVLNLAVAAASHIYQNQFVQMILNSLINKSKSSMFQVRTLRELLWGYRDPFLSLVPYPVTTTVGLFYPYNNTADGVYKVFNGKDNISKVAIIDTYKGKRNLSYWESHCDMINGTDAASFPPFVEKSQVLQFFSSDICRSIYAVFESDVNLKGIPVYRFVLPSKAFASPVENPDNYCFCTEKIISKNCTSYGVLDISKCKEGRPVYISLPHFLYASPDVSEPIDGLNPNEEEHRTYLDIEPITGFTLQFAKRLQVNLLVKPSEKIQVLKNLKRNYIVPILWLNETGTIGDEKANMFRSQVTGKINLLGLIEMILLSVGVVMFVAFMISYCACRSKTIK
UniProt Q9ULM3, 201-350 limits assumed: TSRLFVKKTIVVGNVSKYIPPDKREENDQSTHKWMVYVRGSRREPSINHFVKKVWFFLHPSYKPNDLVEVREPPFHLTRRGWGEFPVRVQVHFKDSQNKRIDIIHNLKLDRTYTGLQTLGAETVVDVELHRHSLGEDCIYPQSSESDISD

Cc1cc(SCc2sc(-c3cn[nH]c3)nc2C)ccc1OCC(=O)O — CC50 (HEK293T; 18 h): not toxic
CC(=O)N[C@@H](CCC(N)=O)C(=O)N[C@H](C(=O)N[C@@H](C)C(=O)N[C@@H](CCCNC(=N)N)C(=O)N[C@@H](CCCCNC(=O)CCc1ccc(N=Nc2ccc(N(C)C)cc2)cc1)C(=O)N[C@@H](CO)C(=O)N[C@H](C(=O)NCC(=O)NCC(=O)NCCCNC(=S)Nc1ccc2c(c1)C(=O)OC21c2ccc(O)cc2Oc2cc(O)ccc21)[C@@H](C)O)[C@@H](C)O — kcat (SIRT2 (Homo sapiens, UniProt Q8IXJ6); enzyme activity, substrate, plate reader kinetics; 24 nM enzyme, together with: 500 µM NAD+): 0.0024 ± 8e-05 s⁻¹
CC(=O)N[C@H]1[C@H]2OC[C@](CO)(O2)[C@H](O)[C@@H]1O — ligand efficiency (Asialoglycoprotein receptor 1 (Homo sapiens, UniProt P07306); binding, surface plasmon resonance): 0.45
CN(c1ccncc1)c1ccc2c(c1)c(=O)c(C(N)=O)cn2-c1ccc(F)cc1 — response (Grm2 (Rattus norvegicus, UniProt P31421); calcium mobilization, negative allosteric modulator; 30 µM, together with: glutamate 100 µM; relative to: glutamate maximum): 1.16 ± 0.55%
CCOC(=O)/C=C/CNCCCCCN1c2ccccc2CCc2ccc(Cl)cc21 — ubiquitination TR-FRET signal AUC (E3 ubiquitin-protein ligase NEDD4; inhibitor, Ub-TR-FRET; 0.4115 µM, 1 h preincubation, HECT domain, together with: ATP 2 mM; higher = more ubiquitination): 85100 a.u. and 70000 a.u. and 68300 a.u. and 82900 a.u. and 69100 a.u. and 86000 a.u.
CCn1c(-c2cc(NC(=O)c3cnccn3)n[nH]2)cc2ccccc21 — maximal inhibition (CSNK2A1 (Homo sapiens, UniProt P68400); enzyme activity, inhibitor): 30%
CCOc1ccc2nc(SCC(=O)Nc3ccc(Cl)cc3)[nH]c2c1 — activity class (FPR1 (Homo sapiens, UniProt P21462); calcium mobilization, agonist; transfected HL-60 cells; concentration not given): active
CC(=O)Nc1ncc(CN2CC[C@H](Oc3cccc(F)n3)C[C@@H]2C)s1 [isotope labelled] — Bmax (Protein O-GlcNAcase (Rattus norvegicus, UniProt Q8VIJ5); saturation binding; rat cerebellum homogenate; radiolabelled compound): 6.6 ± 0.6 nM
NCC(c1ccccc1)c1cccc(Oc2ccccc2)c1 (stereo not drawn) — efficacy decrease (Trace amine-associated receptor 1 (Rattus norvegicus, UniProt Q923Y9, N287Y); cAMP production, agonist; mutant; relative to: wild type): 46%
Fc1ccc2[nH]cc(/C=C/c3cccnc3)c2c1 — inhibition (Amyloid-beta precursor protein, Aβ1-40 (APP, Homo sapiens, UniProt P05067); Aβ40 aggregation, thioflavin T fluorescence; 25 µM): 31%
CCc1ccc(NS(=O)(=O)c2cc(C(=O)Nc3ccccc3C(=O)O)ccc2C)cc1 — ligand efficiency (RPA1 N-terminal domain; binding, fluorescence polarisation competition; together with: FITC-ATRIP probe): 0.18
CCOC(=O)/C=C/CNCCCCN1c2ccccc2CCc2ccc(Cl)cc21 — ubiquitination TR-FRET signal AUC (E3 ubiquitin-protein ligase NEDD4; inhibitor, Ub-TR-FRET; 0.01524 µM, 1 h preincubation, HECT domain, together with: ATP 2 mM; higher = more ubiquitination): 97000 a.u. and 92600 a.u. and 91700 a.u. and 94400 a.u. and 96600 a.u. and 95100 a.u.
COC(=O)[C@@H]1C(C=Nc2cc(Cl)ccc2O)=Cc2cc3c(cc2[C@H]1c1cc(OC)c(OC)c(OC)c1)OCO3 — selectivity index (Leishmania; mouse splenocytes; relative to: CC50 over amastigote EC50): 1.5
Nc1nc(SCc2ccc(Cl)c(Cl)c2)nn1S(=O)(=O)c1ccc2c(c1)CCO2 — FP-rhodamine labelling (LYPLAL1 (Homo sapiens, UniProt Q5VWZ2); activator, gel-based ABPP; purified protein; relative to: DMSO): 2.4 fold
CN(C)C(=O)Cn1cc(-c2ccc(-c3cncc4ccncc34)cc2)cn1 — inhibition (CDK6 (Homo sapiens, UniProt Q00534); enzyme activity, SelectScreen; concentration not given): no inhibition
CC(C)(C)Nc1c(-c2ccc3c(c2)C(=O)N(C2CCC(=O)NC2=O)C3=O)nc2ccccn12 (stereo not drawn) — Dmax (WEE1/CRBN (Homo sapiens, UniProt P30291+Q96SW2); degrader, HiBiT; Jurkat; 5 h): > 98%
Nc1nc(SCc2ccc(Cl)cc2)nn1S(=O)(=O)c1ccc2[nH]cnc2c1 — probe labelling (Lysophospholipase-like protein 1; activator, gel-based ABPP FP-rhodamine; relative to: DMSO): 2.7 fold
Cc1cc(NC(=O)c2cccc(NC(=O)C3=CC(C)(C)CCC3=O)c2)ccc1Nc1nccc(-c2cccnc2)n1 — remaining activity (MAPK8 (Homo sapiens, UniProt P45983); kinase activity, inhibitor; 0.006774 µM, unit not given, together with: 10 mM GSH; relative to: DMSO): 0.962
COc1ccc(S(=O)(=O)n2nc(SCc3ccc(Cl)cc3)nc2N)cn1 — activation (Lysophospholipase-like protein 1; activator, gel-based ABPP, FP-rhodamine; HEK293 overexpressing Lysophospholipase-like protein 1; 10 µM): 32%
COc1ccc(NC(=O)CN2CCCN(S(=O)(=O)c3ccccc3Cl)CC2)c(OC)c1 — maximal response (GRM4 (Homo sapiens, UniProt Q14833); calcium mobilization, positive allosteric modulator; CHO cells with Gqi5; together with: glutamate; relative to: PHCCC maximal response): 25.8%
COC(=O)[C@@]1(C)C=C(C(=O)Nc2cccc(C(=O)NC34CC(Nc5nccc(-c6cccnc6)n5)(C3)C4)c2)C(=O)CC1 — remaining activity (MAPK10 (Homo sapiens, UniProt P53779); enzyme activity, inhibitor; 0.1829 µM): 0.168 fraction of control
CCCCN(CCc1ccc(Cl)c(Cl)c1)C[C@H](O)COc1ccc(NS(C)(=O)=O)cc1 — KD ratio (Glutamate NMDA receptor; Grin1/Grin2b (Grin1/Grin2b, Rattus norvegicus, UniProt P35439+Q00960); whole-cell voltage clamp; HEK cells; relative to: pH 7.6 over pH 6.9): 10.3 fold
CC(C)C[C@H](NC(=O)[C@H](CCC(N)=O)NC(=O)[C@@H](NC(=O)[C@H](CCCCN)NC(=O)[C@H](CC(N)=O)NC(=O)[C@H](CCC(N)=O)NC(=O)[C@H](CC(C)C)NC(=O)[C@@H]1CCCN1C(=O)[C@H](CCC(N)=O)NC(=O)CNC(=O)[C@H](CO)NC(=O)[C@H](CCCNC(=N)N)NC(=O)[C@H](Cc1ccccc1)NC(=O)c1ccccc1N)C(C)C)C(=O)N[C@@H](CCC(N)=O)C(=O)NCCNc1ccc([N+](=O)[O-])cc1[N+](=O)[O-] — kcat (Mitochondrial intermediate peptidase (MIPEP, Homo sapiens, UniProt Q99797); substrate, FRET peptide hydrolysis): 0.122 s⁻¹
Nc1ncnc2c1c(-c1ccc(C(=O)Nc3cc(C(F)(F)F)ccn3)cc1)nn2[C@@H]1CCCN(C(=O)C2CC2)C1 — koff (Tyrosine-protein kinase BTK, non-phosphorylated (BTK, Homo sapiens, UniProt Q06187); TR-FRET binding kinetics; 37 °C, unphosphorylated protein): 0.000763 ± 8.5e-05 s⁻¹
CC(=O)N[C@@H](CC(C)C)C(=O)N[C@H](C(=O)N[C@@H](CO)C(=O)N[C@@H](CCCNC(=N)N)C(=O)Nc1ccc2c(CC(N)=O)cc(=O)oc2c1)C(C)C — kcat/Km (MALT1 (Homo sapiens, UniProt Q9UDY8); substrate, fluorogenic peptide hydrolysis; pH 7.5, catalytic domain 285 or 294 nM): 11000 M⁻¹ s⁻¹
CCOC(=O)/C=C/CNCCCN1c2ccccc2CCc2ccc(Br)cc21 — ubiquitination TR-FRET signal AUC (E3 ubiquitin-protein ligase NEDD4; inhibitor, Ub-TR-FRET; 100 µM, 1 h preincubation, HECT domain, together with: ATP 2 mM; higher = more ubiquitination): 37600 a.u. and 34100 a.u. and 31300 a.u.
Cc1ccc(C(=O)Nc2ccccc2C(=O)O)cc1S(=O)(=O)NCC1CCCCC1 — ligand efficiency (RPA1 N-terminal domain; binding, fluorescence polarisation competition; together with: FITC-ATRIP probe): 0.19
COc1ccc(Nc2c(C(=O)O)ccnc2C(=O)O)cc1 — remaining activity (Egl nine homolog 1 (EGLN1, Homo sapiens, UniProt Q9GZT9); inhibitor, HTRF; 400 µM): 100%
C[C@H](NC(=O)[C@@H](Cc1c[nH]c2ccccc12)NC(=O)[C@@H](N)Cc1c[nH]cn1)C(=O)NN(Cc1ccc(O)cc1)C(=O)N[C@H](Cc1ccccc1)C(=O)N[C@@H](CCCCN)C(N)=O — SPR response (CD36 (Homo sapiens, UniProt P16671); binding; whole human blood; 7.5 µM, 90 min): 0.46 ± 0.08 nm
O=C(Nc1ccc(C(=O)N2CC(c3nccs3)C2)s1)[C@@H]1CCCN1 — binding (YEATS domain-containing protein 2 (Homo sapiens, UniProt Q9ULM3); concentration not given, YEATS2): no binding
CCC(C)(N)c1cn(CC(C)(C)c2c[nH]c3ccccc23)nn1 (stereo not drawn) — Emax (GLP1R (Homo sapiens, UniProt P43220); cAMP accumulation, positive allosteric modulator, HTRF; 0.6 µM, crude reaction product, together with: GLP-1(9-36) at EC20; relative to: BETP): 91%
COC(=O)[C@@H]1C(C=Nc2nccs2)=Cc2cc3c(cc2[C@H]1c1cc(OC)c(OC)c(OC)c1)OCO3 — EC50 (Leishmania infantum; iRFP fluorescence; mouse splenocytes infected, amastigote, iRFP, ex vivo splenic explant; 48 h): 7.5 ± 0.5 µM
CCOC(=O)C(C(=O)/C=C/c1ccc(O)c(OC(F)(F)F)c1)C(=O)/C=C/c1ccc(O)c(OC(F)(F)F)c1 — Aβ band density (APP (Homo sapiens, UniProt P05067); SDS-PAGE western blot, refers to: Aβ1-42 species 75-200 kDa; 30 µM, 24 h, 37 °C, together with: Aβ 10 µM; relative to: DMSO control): 1580 ± 178%
O=C(Nc1ccccc1)C12CC1/C(=N\O)c1cc(F)ccc1O2 (stereo not drawn) — response (Grm1 (Rattus norvegicus, UniProt P23385); antagonist, calcium mobilization; BHK; concentration not given, together with: glutamate EC80; relative to: maximal glutamate): 49%
O=C(OC(C(F)(F)F)C(F)(F)F)N1CCc2cccc(Br)c2C1 — activity (FAAH (Homo sapiens, UniProt O00519); enzyme activity, inhibitor, fluorescence AAMCA substrate; 1 µM): inactive
Cc1nc(-c2cccc(CO)c2)sc1COc1ccc(CCC(=O)O)cc1 — CC50 (HEK293T; 18 h): not toxic

For quick reference, copied from above:
CCOC(=O)/C=C/CNCCCN1c2ccccc2CCc2ccc(Br)cc21 — ubiquitination TR-FRET signal AUC (E3 ubiquitin-protein ligase NEDD4; inhibitor, Ub-TR-FRET; 100 µM, 1 h preincubation, HECT domain, together with: ATP 2 mM; higher = more ubiquitination): 37600 a.u. and 34100 a.u. and 31300 a.u.
CCOC(=O)C(C(=O)/C=C/c1ccc(O)c(OC(F)(F)F)c1)C(=O)/C=C/c1ccc(O)c(OC(F)(F)F)c1 — Aβ band density (APP (Homo sapiens, UniProt P05067); SDS-PAGE western blot, refers to: Aβ1-42 species 75-200 kDa; 30 µM, 24 h, 37 °C, together with: Aβ 10 µM; relative to: DMSO control): 1580 ± 178%
Nc1nc(SCc2ccc(Cl)cc2)nn1S(=O)(=O)c1ccc2[nH]cnc2c1 — probe labelling (Lysophospholipase-like protein 1; activator, gel-based ABPP FP-rhodamine; relative to: DMSO): 2.7 fold
O=C(Nc1ccccc1)C12CC1/C(=N\O)c1cc(F)ccc1O2 (stereo not drawn) — response (Grm1 (Rattus norvegicus, UniProt P23385); antagonist, calcium mobilization; BHK; concentration not given, together with: glutamate EC80; relative to: maximal glutamate): 49%
Nc1nc(SCc2ccc(Cl)c(Cl)c2)nn1S(=O)(=O)c1ccc2c(c1)CCO2 — FP-rhodamine labelling (LYPLAL1 (Homo sapiens, UniProt Q5VWZ2); activator, gel-based ABPP; purified protein; relative to: DMSO): 2.4 fold
COC(=O)[C@@]1(C)C=C(C(=O)Nc2cccc(C(=O)NC34CC(Nc5nccc(-c6cccnc6)n5)(C3)C4)c2)C(=O)CC1 — remaining activity (MAPK10 (Homo sapiens, UniProt P53779); enzyme activity, inhibitor; 0.1829 µM): 0.168 fraction of control
